Assay results gathered from unrelated publications.
Numbered parts are unrelated; each lists some results of a single study.

Study 1
Target: Sal-like protein 4, full length isoform A (SALL4, Homo sapiens, UniProt Q9UJQ4, residues 1-1053)
Chain of UniProt Q9UJQ4 (whole entry, looked up): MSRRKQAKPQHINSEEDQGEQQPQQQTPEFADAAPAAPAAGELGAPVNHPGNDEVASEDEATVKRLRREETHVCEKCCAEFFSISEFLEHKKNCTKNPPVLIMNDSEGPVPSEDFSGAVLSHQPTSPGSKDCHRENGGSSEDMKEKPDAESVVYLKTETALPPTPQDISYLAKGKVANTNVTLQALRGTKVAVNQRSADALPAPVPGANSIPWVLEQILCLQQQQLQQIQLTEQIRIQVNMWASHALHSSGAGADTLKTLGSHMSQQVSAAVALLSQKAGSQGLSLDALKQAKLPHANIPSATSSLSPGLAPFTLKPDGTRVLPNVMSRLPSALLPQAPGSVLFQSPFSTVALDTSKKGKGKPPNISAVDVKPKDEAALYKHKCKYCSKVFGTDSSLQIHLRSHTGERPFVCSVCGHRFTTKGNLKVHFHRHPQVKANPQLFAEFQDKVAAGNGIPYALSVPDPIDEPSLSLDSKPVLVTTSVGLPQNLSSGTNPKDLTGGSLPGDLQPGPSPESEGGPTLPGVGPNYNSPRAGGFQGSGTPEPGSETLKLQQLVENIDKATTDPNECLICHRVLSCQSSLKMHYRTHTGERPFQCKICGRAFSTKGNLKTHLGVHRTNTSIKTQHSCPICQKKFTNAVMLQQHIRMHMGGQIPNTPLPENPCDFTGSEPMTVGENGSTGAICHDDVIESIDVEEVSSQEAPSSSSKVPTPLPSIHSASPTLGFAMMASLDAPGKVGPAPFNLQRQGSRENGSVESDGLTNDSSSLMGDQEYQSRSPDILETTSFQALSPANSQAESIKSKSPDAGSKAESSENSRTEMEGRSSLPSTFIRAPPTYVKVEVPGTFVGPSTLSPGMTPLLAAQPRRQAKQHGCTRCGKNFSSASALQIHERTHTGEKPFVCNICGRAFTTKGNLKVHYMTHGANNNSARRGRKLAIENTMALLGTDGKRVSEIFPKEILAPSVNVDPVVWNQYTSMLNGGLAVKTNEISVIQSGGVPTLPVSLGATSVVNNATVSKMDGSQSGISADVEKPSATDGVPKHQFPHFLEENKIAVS
Technique: universal PBM
Form: double-stranded DNA, one strand shown
Sample: in vitro
Tested at: 600 nM
Notes: 8-mer, flanks averaged, mean of replicates
Reading: higher = stronger binding
Sequence	E-score
ATGCGGAA	0.0267
GGTACGTA	-0.0088
ATTGGAGG	-0.111
AGGCTCAG	-0.173
ATACGAGG	-0.0713
AAACTAGC	-0.0717
TCCCCCGA	-0.3
ATGGTTCG	0.00704
ATGTAATC	0.229
ACTAGGTC	-0.0869
ACAACGGA	-0.0683
AAGGGTCT	-0.0679
GGGGACTA	-0.0967
AAAAGGCC	-0.122
AGCACTTG	-0.238
ATGAAAAG	0.103
AGGTCTAA	0.0586
GCGCCAAA	-0.0625
CTACTATA	0.309
GATAGACA	0.0844
AGTATTTA	0.331
ATCGCTAC	-0.0189
ATGTTACC	0.0886
AATCCTGT	0.18

Study 2
Target: human cyclin A2
Effect on: peptide binding
Technique: competitive growth sequencing
Form: peptide
Organism: Saccharomyces cerevisiae
Strain: cyclin A2-Cln2 fusion strain
Tested at: concentration not given
Notes: peptide tiling library
Relative to: unfused Cln2 strain
Reading: direction not given
Molecule	binding score
SCCKRKLVVGNGPEGP	0.425
PARRRLRLSVDEVSSP	2.06
DWDTVERQEEEAPSWD	0.442
VKRLNFRSEEME	0.822
PKNAKRNLSSEFAN	2.91
EPPHRRRLLFACSPPP	0.309
IPDRSTKPVVFSPT	-0.326
AIRKMREDRWAVIAKM	1.46
SVKQLGPPFEHASNND	1.82
ALTMEALEDPSPELME	0.946
RKLHFEDEVT	2.61
TQERKQIHCLSEDELS	0.346
NVVSLDDPIQFTRVSS	1.79
SSEVARHLLFQSHM	-0.155
ESSQLTVQAEFDMSAI	-0.0497
IFNKPECGRVQRAIFQ	0.676

Study 3
Target: Hepatocyte nuclear factor 3-alpha (Foxa1, Mus musculus, UniProt P35582, residues 1-468, full length assumed)
Technique: EMSA with sequencing
Form: double-stranded DNA, one strand shown
Sample: in vitro
Tested at: 10 and 20 nM
Notes: whole designed probe, mean of two concentrations, ends assumed
Relative to: negative control set to 0
Reading: higher = stronger binding
Residues (chain): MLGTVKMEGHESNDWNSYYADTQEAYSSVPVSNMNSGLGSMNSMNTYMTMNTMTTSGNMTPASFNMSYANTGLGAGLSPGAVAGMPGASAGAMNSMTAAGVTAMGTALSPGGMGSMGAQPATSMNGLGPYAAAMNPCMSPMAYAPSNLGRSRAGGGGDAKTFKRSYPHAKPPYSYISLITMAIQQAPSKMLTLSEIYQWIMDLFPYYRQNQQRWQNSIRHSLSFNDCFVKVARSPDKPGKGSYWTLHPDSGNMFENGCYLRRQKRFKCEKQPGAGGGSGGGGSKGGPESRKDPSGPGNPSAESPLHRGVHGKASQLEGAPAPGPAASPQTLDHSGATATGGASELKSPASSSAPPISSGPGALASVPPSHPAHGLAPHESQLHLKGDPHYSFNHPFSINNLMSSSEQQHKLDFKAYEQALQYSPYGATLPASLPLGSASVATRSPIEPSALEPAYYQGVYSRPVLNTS
Sequence	normalised bound fraction
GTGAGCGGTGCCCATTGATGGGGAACCTAACGTGCAAAATGCTGTACATTAAGTATAGCCAAAATGCAACACTGAGACAGACAGAAAAAACAGGAATTTTTCCAGGGAGATAAATCAAAAGTAAACAAGGAGATAGCTTTAGAGCTGTGCTTTCAATGGCTGGATATTCAAATTATGTTTTATCTCTTAAAATTTCAGAAGTAATATGGGGATACTGAATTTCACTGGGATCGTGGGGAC	0.442 ratio
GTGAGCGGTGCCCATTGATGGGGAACAACAATTTAATTCCATTTTTATCAATGATATCTTCTTCTATGGAAGAAAATTAAGATAATTCAATGTTTTCCTACATCATTTAATATAAGGTTAAATTACTCTTGGAAACTTCCATTCTTTATTGCTCCTCAACAATAGCAACCACAAAAATTCCCATAATTCTCTCTTTAAAGATCAACCAAAATTAAGGAATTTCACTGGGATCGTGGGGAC	-0.0143 ratio
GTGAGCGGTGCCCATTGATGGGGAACATGATCCTCCCTTTCTTCAGCTGTCCAATGGGTTAATCATCCCAAGTCCCCCAGCCTTGATGACAATCCAGGGGGCTGGGGTATATCTGCCATTGTTTGCCTTTCCCTTGCTTCTCTCTGAGTGATTGGCAGACAGCAGGCCTCTGAATGCCATCCTCCCCAGCATTCTTGGCAAGGCGGCTGAAACTCCAGCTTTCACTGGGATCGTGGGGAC	0.287 ratio
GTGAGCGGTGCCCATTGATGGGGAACTTCTCAACAAAATTCCCACATTTATTGCTCCTCTTCTTGCTCCTGGGTTTACCTTCCTTGAATGATGATGGCATGTTTACAGTAACTCCCAGTGTTTACATTACAACTCCCAATGTTTACACTCCTTTTGTTTACATCAGGTCCCAATAATGAGGACAACTTTCTTATAGAGTGAACCTCAGTCCCCCATTACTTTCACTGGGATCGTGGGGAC	0.525 ratio
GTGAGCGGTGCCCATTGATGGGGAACTCACGCTATCCAGCTCAGCACTTGGCAAACATTAGCTCACCACAAGAATGCATCCTCAGGTTTTTAAGTCAGACAAGGGCTTCATAGCAGTTCTATTGACATTGGGGATGAACAGTTCCTTGCGGTGGGGGCTGTTCTGTGCATTGTGAGACGCTCAGCAGCATCCACGTGGCCTCTTTCCACTAGATGCCAATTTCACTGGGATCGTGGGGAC	0.373 ratio

Study 4
Target: Fragile X messenger ribonucleoprotein 1, C-terminal low-complexity region (Fmr1, Mus musculus, UniProt P35922)
Technique: RNA Bind-n-Seq
Form: RNA
Sample: in vitro
Tested at: 200 nM
Notes: whole 134-nt RNA, ends assumed
Together with: 150 mM LiCl
Relative to: input library
Reading: higher = stronger binding
Library: 7-deaza-guanosine replaces G
Sequence	log2 enrichment
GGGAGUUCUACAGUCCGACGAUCUGGUUUUGGUGCCUGGCAUCGAAGAUGGUGUGUUCUUUCUGGAAACUGUAUAUCUUAUUGGACUUAUCCAGAUGAUGAGAAACGCAAGGUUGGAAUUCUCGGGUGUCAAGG	-2.04
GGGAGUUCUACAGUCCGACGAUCCCUCAAGUCCUGUGCUACACAUCGUAUGUACCGAAUCGGAGGGAGGGAGGGGAAAGUAUUAUGUUACGCCGUUCGGAUCUGCACUUCCAGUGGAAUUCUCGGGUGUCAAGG	-1.21
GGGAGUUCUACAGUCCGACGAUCUAACUUUAGAGCAGGAUCUGAUGGAUAUGGCAGUGGACGUGGAUUUGGGGAUGGCUAUAAUGGGUAUGGAGGAGGACCUGGAGGUGGCAAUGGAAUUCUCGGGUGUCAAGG	-0.492
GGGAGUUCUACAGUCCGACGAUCGCAGGAAGUAAAAACAAAUGGAAAUGCUUCGGAUAGUGGCAGGGGUGGGGGUUGCUAAGGAAAGGGUGGGAUGGGAGUGGGUACAGAGUUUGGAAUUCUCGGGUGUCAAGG	1.29
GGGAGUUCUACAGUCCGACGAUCUGGAUCUUGGAGGGACCAACUUCCGUGUGCUUUGGGUGAAAGUAACGGACAAUGGGCUCCAGAAGGUGGAGAUGGAGAAUCAGAUCUAUGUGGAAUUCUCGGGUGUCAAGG	-2.62
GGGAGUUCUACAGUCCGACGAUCAAGUCCUGUGCUACACAUCGUAUGUACCGAAUCGGUUUUUUUGGUUUGGUUUUUGGAAAGUAUUAUGUUACGCCGUUCGGAUCUGCACUUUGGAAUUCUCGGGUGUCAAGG	-2.91
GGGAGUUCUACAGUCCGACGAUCCUCAAGUCCUGUGCUACACAUCGUAUGUACCGAAUCGGCCCGGGCCCGGCCCGGAAAGUAUUAUGUUACGCCGUUCGGAUCUGCACUUCCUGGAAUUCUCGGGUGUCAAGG	0.574
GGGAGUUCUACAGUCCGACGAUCUGUGCUACACAUCGUAUGUACCGAAUCGGGGUUUUUUUGGGGUUUUUUUGGGUUUUUUUGGGAAAGUAUUAUGUUACGCCGUUCGGAUCUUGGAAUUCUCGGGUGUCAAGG	1.35
